# Measured values gathered from unrelated publications.
# Compare with care: the assays were run in different laboratories. ± gives the spread as reported.
# T1: pre-tRNA-Asp, 5-nt leader (Bacillus subtilis); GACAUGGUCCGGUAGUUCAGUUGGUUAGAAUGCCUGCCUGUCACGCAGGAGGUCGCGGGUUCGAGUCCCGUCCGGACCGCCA
SMILES,target,test,system,setting,how to read,measurement,result
CCc1nc2cc3ccccc3cc2cc1C(=O)N1CCC[C@H]1C(=O)N[C@@H](C/C=C\C[C@H](NC(=O)[C@@H]1CCCN1C(=O)c1cc2cc3ccccc3cc2nc1CC)C(=O)N[C@@H](CCCCN)C(=O)NCCCN)C(=O)N[C@@H](CCCCN)C(=O)NCCCN,(CUG)10 RNA,SPR,,,,residence time,548 s
O=C(Nc1nc2ccccc2s1)C1CCN(S(=O)(=O)c2ccc(F)c(Cl)c2)CC1,"N-acyl-phosphatidylethanolamine-hydrolyzing phospholipase D (Napepld, Mus musculus, UniProt Q8BH82)",enzyme activity,RAW264.7,"concentration not given, with: PED-A1 substrate",,activity,no effect
NC[C@H]1O[C@H](O[C@H]2[C@H](O)[C@@H](O[C@H]3O[C@H](CO)[C@@H](O)[C@H](N)[C@H]3O)[C@H](N)C[C@@H]2N)[C@H](N)[C@@H](O)[C@@H]1O,"T1, pre-tRNA-Asp, 5-nt leader (Bacillus subtilis)",fluorescence anisotropy,,"pH 7.2, 37 °C, MgCl2 10 mM, apparent, with: RNA 50 nM",,Kd,220 µM
CC(C)(C)CCN1C[C@@H]2[C@@H](CNC(=O)c3cc(Cl)cc(Cl)c3)[C@@H]2C1.Cl,"Voltage-dependent L-type calcium channel subunit alpha-1F (Homo sapiens, UniProt O60840, M1004A)","calcium current, whole-cell patch clamp",HEK-293T cells,100 µM,,half-activation voltage,-1.58 ± 9.29 mV
CCCN(CC(=O)N(CCC)CC(=O)N(CCC)CC(=O)N(CC(N)=O)Cc1cn(CCCNC(=O)CCCOc2cccc(-c3nc4ccc(-c5nc6ccc(N7CCN(C)CC7)cc6[nH]5)cc4[nH]3)c2)nn1)C(=O)CNCc1cn(CCCNC(=O)CCCOc2cccc(-c3nc4ccc(-c5nc6ccc(N7CCN(C)CC7)cc6[nH]5)cc4[nH]3)c2)nn1,MBNL1–r(CUG)109 complex,MBNL1 displacement,0.65 pmol r(CUG)109,"unit not given, with: yeast tRNA 3.7 µM",baseline: monomer 2 IC50 per module,multivalent effect,3
COc1cccc(C(=O)N[C@H]2[C@@H](O)[C@@H](CO)O[C@@H](S[C@@H]3O[C@H](CO)[C@H](O)[C@H](NC(=O)c4cccc(OC)c4)[C@H]3OS(=O)(=O)O)[C@@H]2O)c1,"Galectin-3 (LGALS3, Homo sapiens, UniProt P17931)",ITC,,,,ΔH,-13.24 ± 0.0717 kcal/mol
O=C([O-])CN1CCN(CC(=O)[O-])CCN(C(CCC(=O)NCCCCCN(CCCC[C@H](NC(=O)N[C@@H](CCC(=O)O)C(=O)O)C(=O)O)C(=O)c2ccc(I)cc2)C(=O)O)CCN(CC(=O)[O-])CC1.[68Ga+3] (stereo partly shown),"Glutamate carboxypeptidase 2 (FOLH1, Homo sapiens, UniProt Q04609)",PET/CT,"prostate cancer patients, primary prostate cancer lesions",,baseline: primary lesions over salivary glands,tumour-to-normal tissue ratio,2.79 ± 2.74
COc1ccc(-c2cc(C(F)(F)F)nc(SCCC(=O)Nc3cc(F)ccc3F)n2)cc1,"Glucagon-like peptide 1 receptor (GLP1R, Homo sapiens, UniProt P43220)","cAMP accumulation, positive allosteric modulator",HEK-293T overexpressing GLP1R,with: EC20 GLP-1,,Emax,30 ± 13%
CCCCCCCCCCCSc1nc2c([nH]1)c(=O)n(C)c(=S)n2C,"Androgen receptor (AR, Homo sapiens, UniProt P10275)","reporter gene, antagonist, PSA-luciferase",HeLa-A6,"10 µM, 24 h, with: 5 nM dihydrotestosterone",baseline: maximal activity,remaining activity,91%
Clc1ccccc1C(Nc1nccs1)(c1ccccc1)c1ccccc1,"Gap junction alpha-8 protein (Gja8, Mus musculus, UniProt P28236)",,N2a,10 µM,,activity,active
CC(C)=CCCC(C)=CCc1cc(-c2coc3cc(OC4OC(C(=O)O)C(O)C(O)C4O)ccc3c2=O)ccc1O (stereo not shown),"UDP-glucuronosyltransferase 1A1 (UGT1A1, Homo sapiens, UniProt P22309)","glucuronidation, substrate, recombinant enzyme",,,,Vmax,148 pmol/min/mg
CCOCCNC(=O)N1CCC[C@H](c2n[nH]c(-c3ccccc3)n2)C1,"Aromatase (CYP19A1, Homo sapiens, UniProt P11511)","enzyme activity, inhibitor, MFC to HFC conversion",,"10 µM, with: MFC substrate",,apparent Vmax,0.63 pmol HFC/min/pmol P450
CC[C@H](C)[C@H](NC(=O)[C@H](CC(N)=O)NC(=O)[C@H](CC(N)=O)NC(=O)[C@H](CCCNC(=N)N)NC(=O)[C@H](CC(N)=O)NC(=O)[C@H](CCCNC(=N)N)NC(=O)[C@H](CCCCN)NC(=O)[C@@H](NC(=O)[C@H](CC(N)=O)NC(=O)[C@H](CCSC)NC(=O)[C@H](CC(C)C)NC(=O)[C@H](Cc1c[nH]c2ccccc12)NC(=O)[C@@H]1CSCc2ccc(cc2)-c2ccc(cc2)CSC[C@H](NC(=O)[C@H](CCC(=O)O)NC(=O)[C@H](CC(=O)O)NC(=O)[C@H](CC(C)C)NC(=O)[C@H](Cc2ccc(O)cc2)NC(=O)[C@H](CCCCN)NC(=O)[C@H](CO)NC(=O)[C@H](Cc2ccc(O)cc2)NC(=O)[C@H](CC(=O)O)NC(=O)[C@H](CO)NC(=O)[C@@H](NC(=O)[C@H](Cc2ccccc2)NC(=O)[C@@H](NC(=O)CNC(=O)[C@H](CCC(N)=O)NC(=O)[C@@H](CO)NC(=O)[C@@H](N)Cc2c[nH]cn2)[C@@H](C)O)[C@@H](C)O)C(=O)N[C@@H](C)C(=O)N[C@@H](C)C(=O)N[C@@H](CCCCN)C(=O)N[C@@H](CCC(=O)O)C(=O)N[C@@H](Cc2ccccc2)C(=O)N[C@@H]([C@@H](C)CC)C(=O)N1)[C@@H](C)O)C(=O)N[C@@H](C)C(N)=O,"Glucagon receptor (GCGR, Homo sapiens, UniProt P47871)","CRE luciferase reporter, agonist",,concentration not given,baseline: linear counterpart,activity increase,40 fold
Nc1ncnc2c1ncn2[C@@H]1O[C@H](COP(=O)(O)NP(=O)(O)OP(=O)(O)O)[C@@H](O)[C@H]1O,"S-adenosylmethionine synthase isoform type-2 (MAT2A, Homo sapiens, UniProt P31153)","AdoMet formation, substrate",,,baseline: ATP over analogue,kcat fold decrease,~100 fold
NC(=O)C1CCNC(=O)C(CCCNC(=O)c2cnccn2)NC(=O)C(Cc2ccco2)NC(=O)C(CC=Cc2ccccc2)NC(=O)C=CC(=O)N1 (stereo not shown),"Receptor tyrosine-protein kinase erbB-4 (ERBB4, Homo sapiens, UniProt Q15303)",DNA-templated library selection,,one selection round,,enrichment factor,0.82
CC(=O)N[C@@H](CC(C)C)C(=O)N[C@@H](Cc1c[nH]cn1)C(=O)N[C@@H](CO)C(=O)N[C@H](C(=O)N[C@@H](C)C(N)=O)[C@@H](C)OP(=O)(O)O,"Plk2 polo-box domain, human",isothermal titration calorimetry,,concentration not given,,binding,no binding
N#Cc1cccc(/C=C/C(=O)c2ccc(O)cc2)c1,"Protein disulfide-isomerase (P4HB, Homo sapiens, UniProt P07237)","target stabilization, CETSA",U-87 MG,"100 µM, 2 h",,thermal shift,1 to 2 °C
N#Cc1cnc(Nc2nc3ccccc3o2)nc1-c1ccsc1,"Metabotropic glutamate receptor 5 (Grm5, Rattus norvegicus, UniProt P31424)","calcium mobilization, negative allosteric modulator",,with: glutamate EC80,baseline: maximal glutamate response,maximal response,13 ± 5%
CSCC[C@H](NC(=O)[C@H](CCC(N)=O)NC(=O)[C@H](Cc1ccccc1)NC(=O)CNC(=O)CNC(C)=O)C(=O)N[C@@H](C)C(=O)N[C@@H](CC(C)C)C(=O)N[C@H](C(=O)N1CCC[C@H]1C(=O)N[C@H](C(=O)N[C@H](C(=O)O)C(C)C)C(C)C)[C@@H](C)O,"Heat shock cognate 71 kDa protein, substrate-binding domain (HSPA8, Homo sapiens, UniProt P11142)",competition fluorescence polarization,,concentration not given,,binding,inactive
CNc1ccccc1C(=O)O[C@H]1C[C@H](n2cnc3c(N)ncnc32)O[C@@H]1COP(=O)(O)OP(=O)(O)O,"Unconventional myosin-Va (Gallus gallus, UniProt Q02440, D297C/G292C/I296C/S293C/V295G)",,,higher temperatures,baseline: without Mg,FRET distance difference,~5 Å
COc1cc(-c2cnc3nc2NCCCNS(=O)(=O)c2cccc(c2)N3)ccc1F,"Ephrin type-A receptor 7 (EPHA7, Homo sapiens, UniProt Q15375)",differential scanning fluorimetry,,10 µM,higher = stronger binding,thermal shift ΔTm,0.3 K
N#C/C(=C\c1cccc(-c2ccncc2)c1)C(N)=O,"Ribosomal protein S6 kinase alpha-5 (RPS6KA5, Homo sapiens, UniProt O75582, C440V)","autophosphorylation, inhibitor",transfected COS-7,with: PMA,,max non-inhibitory concentration,> 20 µM
CC[C@H](C)[C@H](NC(=O)[C@@H]1CCCN1C(=O)[C@H](CCCCN)NC(=O)[C@H](CO)NC(=O)[C@H](CO)NC(=O)[C@H](Cc1ccc(O)cc1)NC(=O)[C@H](CO)NC(=O)[C@H](C)NC(=O)[C@H](CO)NC(=O)[C@@H](N)Cc1ccccc1)C(=O)N[C@@H](CCC(N)=O)C(=O)N[C@H](C(=O)N[C@@H](CCC(N)=O)C(=O)N[C@H](C(=O)N[C@@H](CO)C(=O)N[C@@H](CC(N)=O)C(=O)NCC(=O)N[C@@H](CCSC)C(=O)N[C@@H](CC(=O)O)C(=O)N[C@@H](CC(N)=O)C(=O)N[C@@H](C)C(=O)N[C@@H](CO)C(=O)N[C@@H](C)C(=O)N1CCC[C@H]1C(=O)N[C@H](C(=O)O)C(C)C)C(C)C)[C@@H](C)O,"Peptide cyclase 1 (Gypsophila vaccaria, UniProt R4P353, S562A)",ITC,,"pH 8.0, 25 °C",,–TΔS,2.03 kcal/mol
CN[C@@H](C)C(=O)N[C@H]1CCCCNC(=O)[C@H](Cc2ccccc2)NC(=O)[C@@H]2CCCN2C(=O)[C@@H](NC(=O)[C@H](C)NC)CCCCNC(=O)[C@H](Cc2ccccc2)NC(=O)[C@@H]2CCCN2C1=O,"E3 ubiquitin-protein ligase XIAP, BIR3 domain (XIAP, Homo sapiens, UniProt P98170)",analytical gel filtration,,"1.5-fold molar excess, BIR3 domain protein",,apparent molecular mass,31.4 kDa
C[C@@H](N)[C@H]1CC[C@H](C(=O)Nc2ccncc2)CC1,"Protein kinase C eta type (PRKCH, Homo sapiens, UniProt P24723)","enzyme activity, inhibitor, radiometric",,10 µM,,activity vs control,< 10%

# Excerpt of the above:
SMILES,target,test,system,setting,how to read,measurement,result
CNc1ccccc1C(=O)O[C@H]1C[C@H](n2cnc3c(N)ncnc32)O[C@@H]1COP(=O)(O)OP(=O)(O)O,"Unconventional myosin-Va (Gallus gallus, UniProt Q02440, D297C/G292C/I296C/S293C/V295G)",,,higher temperatures,baseline: without Mg,FRET distance difference,~5 Å
COc1cc(-c2cnc3nc2NCCCNS(=O)(=O)c2cccc(c2)N3)ccc1F,"Ephrin type-A receptor 7 (EPHA7, Homo sapiens, UniProt Q15375)",differential scanning fluorimetry,,10 µM,higher = stronger binding,thermal shift ΔTm,0.3 K
N#C/C(=C\c1cccc(-c2ccncc2)c1)C(N)=O,"Ribosomal protein S6 kinase alpha-5 (RPS6KA5, Homo sapiens, UniProt O75582, C440V)","autophosphorylation, inhibitor",transfected COS-7,with: PMA,,max non-inhibitory concentration,> 20 µM
CC[C@H](C)[C@H](NC(=O)[C@@H]1CCCN1C(=O)[C@H](CCCCN)NC(=O)[C@H](CO)NC(=O)[C@H](CO)NC(=O)[C@H](Cc1ccc(O)cc1)NC(=O)[C@H](CO)NC(=O)[C@H](C)NC(=O)[C@H](CO)NC(=O)[C@@H](N)Cc1ccccc1)C(=O)N[C@@H](CCC(N)=O)C(=O)N[C@H](C(=O)N[C@@H](CCC(N)=O)C(=O)N[C@H](C(=O)N[C@@H](CO)C(=O)N[C@@H](CC(N)=O)C(=O)NCC(=O)N[C@@H](CCSC)C(=O)N[C@@H](CC(=O)O)C(=O)N[C@@H](CC(N)=O)C(=O)N[C@@H](C)C(=O)N[C@@H](CO)C(=O)N[C@@H](C)C(=O)N1CCC[C@H]1C(=O)N[C@H](C(=O)O)C(C)C)C(C)C)[C@@H](C)O,"Peptide cyclase 1 (Gypsophila vaccaria, UniProt R4P353, S562A)",ITC,,"pH 8.0, 25 °C",,–TΔS,2.03 kcal/mol
